Measured values pooled from the literature.
Numbered parts are unrelated; each lists some results of a single study.
UniProt Q9NQU5, sequence (whole entry, looked up): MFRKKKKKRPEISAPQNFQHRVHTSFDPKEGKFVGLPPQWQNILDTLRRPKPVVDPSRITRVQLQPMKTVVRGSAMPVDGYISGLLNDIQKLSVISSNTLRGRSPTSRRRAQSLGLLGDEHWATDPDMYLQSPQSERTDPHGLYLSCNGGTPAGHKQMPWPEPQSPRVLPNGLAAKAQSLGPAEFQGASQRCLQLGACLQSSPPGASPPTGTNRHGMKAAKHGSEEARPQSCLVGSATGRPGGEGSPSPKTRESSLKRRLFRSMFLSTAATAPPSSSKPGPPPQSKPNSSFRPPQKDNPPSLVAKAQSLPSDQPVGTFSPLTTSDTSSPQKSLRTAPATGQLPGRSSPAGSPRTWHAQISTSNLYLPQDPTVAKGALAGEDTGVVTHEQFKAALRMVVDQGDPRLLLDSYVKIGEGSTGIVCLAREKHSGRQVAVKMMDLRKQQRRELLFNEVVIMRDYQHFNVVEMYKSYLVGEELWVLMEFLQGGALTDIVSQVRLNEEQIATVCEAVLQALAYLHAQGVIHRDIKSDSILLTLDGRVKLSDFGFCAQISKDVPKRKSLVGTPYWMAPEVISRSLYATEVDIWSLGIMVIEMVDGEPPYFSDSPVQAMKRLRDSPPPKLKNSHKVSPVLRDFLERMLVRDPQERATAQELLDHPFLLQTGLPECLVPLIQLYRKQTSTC
UniProt P36897, sequence (whole entry, looked up): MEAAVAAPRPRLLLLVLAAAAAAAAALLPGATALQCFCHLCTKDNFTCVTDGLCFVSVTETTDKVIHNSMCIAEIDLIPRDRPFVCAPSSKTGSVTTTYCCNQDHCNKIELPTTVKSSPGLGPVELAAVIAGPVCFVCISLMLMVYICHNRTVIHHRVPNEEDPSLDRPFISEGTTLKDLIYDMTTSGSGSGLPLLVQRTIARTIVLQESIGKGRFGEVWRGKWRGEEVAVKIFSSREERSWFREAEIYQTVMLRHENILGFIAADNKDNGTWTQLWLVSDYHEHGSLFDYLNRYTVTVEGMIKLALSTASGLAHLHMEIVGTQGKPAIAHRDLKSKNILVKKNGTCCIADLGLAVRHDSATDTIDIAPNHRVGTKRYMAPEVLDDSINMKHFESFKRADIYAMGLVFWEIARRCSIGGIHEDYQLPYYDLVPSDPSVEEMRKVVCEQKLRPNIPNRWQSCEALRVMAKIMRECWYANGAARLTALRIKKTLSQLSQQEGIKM
UniProt O96017, sequence (whole entry, looked up): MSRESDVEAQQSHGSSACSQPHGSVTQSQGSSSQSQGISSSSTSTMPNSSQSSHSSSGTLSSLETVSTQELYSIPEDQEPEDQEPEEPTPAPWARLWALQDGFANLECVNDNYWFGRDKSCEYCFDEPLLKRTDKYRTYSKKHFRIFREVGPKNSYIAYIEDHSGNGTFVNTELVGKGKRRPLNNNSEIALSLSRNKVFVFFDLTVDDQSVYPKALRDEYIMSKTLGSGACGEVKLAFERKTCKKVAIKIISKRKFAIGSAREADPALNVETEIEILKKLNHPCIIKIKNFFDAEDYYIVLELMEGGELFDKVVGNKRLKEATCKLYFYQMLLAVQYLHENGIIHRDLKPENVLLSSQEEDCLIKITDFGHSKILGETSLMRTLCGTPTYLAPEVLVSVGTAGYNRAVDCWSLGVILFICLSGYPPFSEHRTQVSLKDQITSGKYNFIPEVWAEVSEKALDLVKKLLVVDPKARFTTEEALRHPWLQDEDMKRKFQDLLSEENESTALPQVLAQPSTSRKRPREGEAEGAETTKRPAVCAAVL
UniProt Q9H093, sequence (whole entry, looked up): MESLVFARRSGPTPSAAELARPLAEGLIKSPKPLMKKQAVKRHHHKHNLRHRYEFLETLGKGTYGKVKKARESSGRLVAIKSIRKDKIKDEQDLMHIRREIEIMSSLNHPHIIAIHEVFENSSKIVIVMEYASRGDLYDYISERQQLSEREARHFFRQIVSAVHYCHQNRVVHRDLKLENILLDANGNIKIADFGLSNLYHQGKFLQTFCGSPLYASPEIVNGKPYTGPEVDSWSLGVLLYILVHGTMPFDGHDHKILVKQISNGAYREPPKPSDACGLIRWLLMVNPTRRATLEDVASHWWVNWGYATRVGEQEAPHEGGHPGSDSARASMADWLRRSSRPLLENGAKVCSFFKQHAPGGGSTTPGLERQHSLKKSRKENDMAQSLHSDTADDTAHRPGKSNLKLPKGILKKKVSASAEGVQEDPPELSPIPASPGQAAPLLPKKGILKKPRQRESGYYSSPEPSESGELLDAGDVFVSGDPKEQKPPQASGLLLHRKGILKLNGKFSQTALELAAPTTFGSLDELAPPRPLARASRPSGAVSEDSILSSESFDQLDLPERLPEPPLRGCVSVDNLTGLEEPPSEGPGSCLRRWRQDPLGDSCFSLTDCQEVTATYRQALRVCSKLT
UniProt Q15418, sequence (whole entry, looked up): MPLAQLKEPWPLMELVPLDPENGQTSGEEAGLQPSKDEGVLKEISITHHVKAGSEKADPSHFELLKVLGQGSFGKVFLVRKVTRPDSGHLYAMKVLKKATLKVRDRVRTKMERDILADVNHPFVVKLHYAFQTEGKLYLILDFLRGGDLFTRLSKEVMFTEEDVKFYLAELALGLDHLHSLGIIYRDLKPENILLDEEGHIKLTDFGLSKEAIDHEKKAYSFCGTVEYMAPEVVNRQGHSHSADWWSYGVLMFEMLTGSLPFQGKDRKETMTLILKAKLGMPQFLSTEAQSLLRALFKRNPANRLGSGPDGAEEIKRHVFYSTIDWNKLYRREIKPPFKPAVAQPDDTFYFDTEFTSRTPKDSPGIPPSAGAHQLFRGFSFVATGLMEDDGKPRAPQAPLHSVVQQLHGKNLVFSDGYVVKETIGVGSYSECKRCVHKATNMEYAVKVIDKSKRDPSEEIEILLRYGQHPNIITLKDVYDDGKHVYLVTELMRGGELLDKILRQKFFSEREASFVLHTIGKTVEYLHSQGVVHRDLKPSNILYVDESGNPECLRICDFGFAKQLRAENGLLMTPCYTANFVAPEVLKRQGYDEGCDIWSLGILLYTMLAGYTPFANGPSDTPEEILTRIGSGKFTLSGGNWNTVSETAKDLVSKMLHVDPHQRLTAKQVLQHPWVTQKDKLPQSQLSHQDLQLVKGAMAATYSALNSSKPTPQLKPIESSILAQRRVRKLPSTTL
UniProt Q9Y2U5, sequence (whole entry, looked up): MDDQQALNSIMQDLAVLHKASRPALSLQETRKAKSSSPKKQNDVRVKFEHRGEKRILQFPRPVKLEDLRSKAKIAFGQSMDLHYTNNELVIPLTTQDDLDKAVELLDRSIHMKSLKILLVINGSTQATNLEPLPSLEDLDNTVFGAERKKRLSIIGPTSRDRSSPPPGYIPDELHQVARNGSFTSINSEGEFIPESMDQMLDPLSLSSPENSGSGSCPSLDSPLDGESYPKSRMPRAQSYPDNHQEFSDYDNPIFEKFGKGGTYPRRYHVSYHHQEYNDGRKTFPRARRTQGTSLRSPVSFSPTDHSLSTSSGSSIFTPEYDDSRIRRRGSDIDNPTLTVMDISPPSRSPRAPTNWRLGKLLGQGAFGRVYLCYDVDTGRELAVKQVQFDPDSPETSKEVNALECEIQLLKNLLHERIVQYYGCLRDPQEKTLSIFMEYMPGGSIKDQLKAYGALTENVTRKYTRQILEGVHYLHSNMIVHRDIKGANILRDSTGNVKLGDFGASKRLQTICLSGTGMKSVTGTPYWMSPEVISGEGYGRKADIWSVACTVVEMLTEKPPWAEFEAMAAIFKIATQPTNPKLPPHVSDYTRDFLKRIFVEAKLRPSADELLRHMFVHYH
UniProt P35626, sequence (whole entry, looked up): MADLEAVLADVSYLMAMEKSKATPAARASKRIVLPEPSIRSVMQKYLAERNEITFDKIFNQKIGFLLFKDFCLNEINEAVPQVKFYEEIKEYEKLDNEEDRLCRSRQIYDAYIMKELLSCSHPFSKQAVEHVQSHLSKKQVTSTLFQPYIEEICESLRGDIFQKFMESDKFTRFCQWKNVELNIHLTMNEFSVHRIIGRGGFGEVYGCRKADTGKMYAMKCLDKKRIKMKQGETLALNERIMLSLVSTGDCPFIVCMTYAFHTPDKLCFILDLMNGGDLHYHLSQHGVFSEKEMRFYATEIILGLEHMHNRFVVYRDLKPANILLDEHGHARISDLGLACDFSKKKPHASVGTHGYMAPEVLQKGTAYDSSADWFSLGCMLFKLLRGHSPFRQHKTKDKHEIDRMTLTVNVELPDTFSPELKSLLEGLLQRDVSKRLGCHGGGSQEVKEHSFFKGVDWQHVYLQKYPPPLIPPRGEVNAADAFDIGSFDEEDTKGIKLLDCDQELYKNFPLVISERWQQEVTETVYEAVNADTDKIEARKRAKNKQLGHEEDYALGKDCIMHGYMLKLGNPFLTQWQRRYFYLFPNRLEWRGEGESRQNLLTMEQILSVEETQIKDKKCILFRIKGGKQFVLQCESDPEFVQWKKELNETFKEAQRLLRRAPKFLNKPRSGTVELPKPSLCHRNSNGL
UniProt Q13163, sequence (whole entry, looked up): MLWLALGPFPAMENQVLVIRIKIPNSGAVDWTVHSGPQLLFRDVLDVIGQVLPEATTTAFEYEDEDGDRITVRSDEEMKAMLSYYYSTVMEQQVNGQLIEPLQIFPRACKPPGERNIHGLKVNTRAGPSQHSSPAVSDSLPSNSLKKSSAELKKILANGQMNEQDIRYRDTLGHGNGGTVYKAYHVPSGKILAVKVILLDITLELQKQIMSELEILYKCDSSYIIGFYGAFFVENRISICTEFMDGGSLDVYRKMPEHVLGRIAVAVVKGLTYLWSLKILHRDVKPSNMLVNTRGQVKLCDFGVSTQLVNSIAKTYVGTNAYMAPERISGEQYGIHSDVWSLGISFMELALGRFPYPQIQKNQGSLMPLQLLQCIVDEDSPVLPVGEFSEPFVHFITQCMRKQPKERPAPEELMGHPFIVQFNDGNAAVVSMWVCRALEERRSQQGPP

Series 1
SMILES: CC(C)n1cnc(-c2ccc(F)cc2)c1-c1ncc(C(=O)Nc2ccc(N3CCN(C)CC3)cc2)[nH]1
Method: phase 2a trial
Quantity: patients with TEAE
idiopathic pulmonary fibrosis patients; oral, dose not given, LDL increased, grade 1, all arms: 1%
patients with idiopathic pulmonary fibrosis; dose not given, allergic conjunctivitis, grade 5, all arms: 0%
idiopathic pulmonary fibrosis patients; oral, 60 mg once daily, ESR increased, grade 1: 1%
idiopathic pulmonary fibrosis patients; oral, 30 mg once daily, CK-MB increased, grade 5: 0%
patients with idiopathic pulmonary fibrosis; 60 mg once daily, eye swelling, grade 5: 0%
idiopathic pulmonary fibrosis patients; oral, 30 mg once daily, disc protrusion, grade 1: 0%
idiopathic pulmonary fibrosis patients; oral, 60 mg once daily, urine red cells, grade 3: 0%

Series 2
Structure (SMILES): C[C@H](c1ccc(F)cc1)N(Cc1cccc(C(=O)O)c1)C(=O)c1cnc2ccccc2c1
Effect on: cell-free assay
Method: competition with immobilised ligand
Tested at: 1 µM
Quantity: remaining binding
RET (Homo sapiens, UniProt P07949): 100%
MAP3K2 (Homo sapiens, UniProt Q9Y2U5): 100%
RPS6KB1 (Homo sapiens, UniProt P23443): 100%
IRAK1 (Homo sapiens, UniProt P51617): 89%
NUAK2 (Homo sapiens, UniProt Q9H093): 100%
PAK6 (Homo sapiens, UniProt Q9NQU5): 100%
MAP2K3 (Homo sapiens, UniProt P46734): 91%
WNK2 (Homo sapiens, UniProt Q9Y3S1): 96%
MAP4K4 (Homo sapiens, UniProt O95819): 96%
STK25 (Homo sapiens, UniProt O00506): 100%
Ribosomal protein S6 kinase alpha-1, C-terminal kinase domain (RPS6KA1, Homo sapiens, UniProt Q15418): 100%
MAP2K5 (Homo sapiens, UniProt Q13163): 92%
RIOK2 (Homo sapiens, UniProt Q9BVS4): 80%

Series 3
Species: mouse
Sample: microsomes or S9
Tested at: 2 µM
Time: 0.5 h
Quantity: remaining compound
Cc1nc(COc2ccc(C(=O)Nc3ccc(S(=O)(=O)/N=c4/o[nH]c(C)c4C)cc3)cc2)cs1: 41.2%
O=C(CCCOc1ccccc1)Nc1ccccc1-c1ccccc1: < 1%
CCc1nc2cc(-c3ccccn3)c(CO)nc2n1Cc1ccc2oc(-c3ccccc3-c3nnn[nH]3)c(Br)c2c1: 26.6%
Cc1nn(C)c2c1N(C(=O)OC(C)(C)C)CC(C)N2C(=O)c1cc(Cl)cc(Cl)c1 (stereo not drawn): 0.359%
O=C(c1ccc(Cn2ccn3nc4c(c3c2=O)CCCC4)cc1)N1CCN(c2ncccn2)CC1: 0.309%
COc1ccc(OCCc2c(O)nc(C)c(Br)c2O)cc1Br: 1.86%

Series 4
Compound: CN(C)CCCn1cc(C2=C(c3c[nH]c4ccccc34)C(=O)NC2=O)c2ccccc21
Effect on: enzyme activity
Action: inhibitor
Tested at: 0.5 µM
Baseline: control
Quantity: remaining activity
CHEK2 (Homo sapiens, UniProt O96017): 68.5%
GRK3 (Homo sapiens, UniProt P35626): 99%
TGFBR1 (Homo sapiens, UniProt P36897): 102%
OXSR1 (Homo sapiens, UniProt O95747): 97.4%
cGMP-dependent protein kinase 1, isoform beta (PRKG1, Homo sapiens, UniProt Q13976): 59.3%
DAPK1 (Homo sapiens, UniProt P53355): 87.9%
CAMK2D (Homo sapiens, UniProt Q13557): 38.7%
